Measurements from different studies.
Every numbered part comes from another study and shows a few of its results, in no order. “And” joins repeats or separate records; there may be more than shown.

Block 1
Cell line: MDA-MB-231
Observed: cell viability
Technique: CellCounting-Lite
Tested at: 0.9145 nM
Temperature: 37 °C
Direction: higher = more viable cells
`CCn1cnc2c(NCc3nc4cc(F)c(F)cc4[nH]3)nc(N3CCn4ncnc4C3)nc21` has a luminescence signal of 547000 a.u. and 506000 a.u. and 502000 a.u.
For `CCn1cnc2c(NCc3nc4cc(Cl)c(Cl)cc4[nH]3)nc(N3CCn4ncnc4C3)nc21`, the luminescence signal was 529000 a.u. and 585000 a.u. and 496000 a.u.
`CCn1cnc2c(NCc3nc4cc(Cl)c(Cl)cc4[nH]3)nc(N3CCN(C(=O)c4ccccn4)CC3)nc21` gave a luminescence signal of 455000 a.u. and 431000 a.u.
With `CCn1cnc2c(NCc3nc4cc(Cl)c(Cl)cc4[nH]3)nc(N3CCN(C(=O)CNC(C)=O)CC3)nc21` the luminescence signal was 477000 a.u. and 471000 a.u. and 499000 a.u.
With `CC(=O)N1CCN(c2nc(NCc3nc4cc(Cl)c(Cl)cc4[nH]3)c3ncn(-c4cnn(C)c4)c3n2)CC1` the luminescence signal was 553000 a.u. and 522000 a.u. and 489000 a.u.
For `CCn1cnc2c(NCc3nc4cc(Cl)c(Cl)cc4[nH]3)nc(N3CCN(C(=O)c4cccnc4)CC3)nc21`, the luminescence signal was 414000 a.u. and 437000 a.u. and 416000 a.u.
`CCn1cnc2c(NCc3nc4cc(Cl)c(Cl)cc4[nH]3)nc(N3CCN(C(=O)c4ccccc4)CC3)nc21` has a luminescence signal of 476000 a.u. and 483000 a.u. and 449000 a.u.
For `CCn1cnc2c(NCc3nc4cc(Cl)c(Cl)cc4[nH]3)nc(N3CCN(C(=O)c4ccncc4)CC3)nc21`, the luminescence signal was 491000 a.u. and 414000 a.u. and 477000 a.u.
The luminescence signal of `CCn1cnc2c(NCc3nc4cc(Cl)c(Cl)cc4[nH]3)nc(N3CCC(NC(C)=O)CC3)nc21` is reported as 523000 a.u. and 462000 a.u. and 447000 a.u.

Block 2
Cell line: Gaucher fibroblasts L444P/L444P
Technique: 4-MUG hydrolysis, cell lysate
Tested at: 0.1 µM
Baseline: DMSO
With `COc1ccc(Nc2nc(NCCN3CCOCC3)nc(N3CCOCC3)n2)cc1` the GCase activity was 92.2% and 114% and 112% and 93.6% and 95.1% and 99.7%.
The GCase activity of `Ic1ccc(Nc2nc(NCCN3CCOCC3)nc(NC3CCCCC3)n2)cc1` is reported as 105% and 100% and 90% and 88.2% and 91.2%.
`CCOc1ccc2nc(Sc3nc(Nc4ccc(OC)cc4)nc(N4CCOCC4)n3)sc2c1` gave a GCase activity of 98.4% and 94.6% and 93.1% and 101%.
For `Ic1ccc(Nc2nc(NCCN3CCOCC3)nc(N3CC4CCC(C3)O4)n2)cc1`, the GCase activity was 104% and 103% and 99.5%.
`CCOc1ccc2nc(Sc3nc(N4CCOCC4)nc(N4CCOCC4)n3)sc2c1` gave a GCase activity of 106% and 99.5% and 96.8% and 109% and 104%.
For `Ic1ccc(Nc2nc(N3CCOCC3)nc(N3CCOCC3)n2)cc1`, the GCase activity was 118% and 109% and 121% and 113% and 110%.

Block 3
Structure (SMILES): CCN1/C(=C/C=C2\CCCC(/C=C/C3=[N+](CC)c4ccccc4C3(C)C)=C2NCCCCCCCCN2CCC(Nc3nc4ccccc4n3Cc3ccc(F)cc3)CC2)C(C)(C)c2ccccc21
Cell line: U-87 MG
Tested at: concentration not given
Baseline: DMSO
The “log2 fold change” was -1.59 (item: VANGL1 mRNA).
For item: ELFN2 mRNA: “log2 fold change” read -2.68.
item: CENPA mRNA — “log2 fold change”: -2.44.
It gave -1.79 for “log2 fold change” (item: MYOZ2 mRNA).
item: BCL10 mRNA — “log2 fold change”: 1.23.
It gave -1.23 for “log2 fold change” (item: CSPG4 mRNA).
It gave -2.47 for “log2 fold change” (item: KCNJ8 mRNA).
item: CEP85L mRNA — “log2 fold change”: 0.833.
The “log2 fold change” was -2.98 (item: NPAS4 mRNA).
For item: CDC25B mRNA: “log2 fold change” read -1.9.
item: ZNF800 mRNA — “log2 fold change”: 1.08.
It gave -1.5 for “log2 fold change” (item: RAD51AP1 mRNA).
It gave 2.57 for “log2 fold change” (item: BEX2 mRNA).
For item: PLK1 mRNA: “log2 fold change” read -2.17.
item: RPS6KA2 mRNA — “log2 fold change”: 2.32.
item: SLC19A1 mRNA — “log2 fold change”: -1.04.

Other studies, line by line
Technique: DNA microarray
With `COCC1CC2C(CCC3C(O)CCC32)c2ccc(O)cc21` (stereo not drawn) the expression ratio was 0.821 and 0.782 and 0.801 and 0.816 and 0.826 (SK-OV-3; item: ACTB; 25 µM; baseline: untreated control).
`COCC1CC2C(CCC3(C)C(O)CCC23)c2ccc(O)cc21` (stereo not drawn) — result for “mRNA level ratio”: 1.37 and 1.4 and 1.35 and 1.34 (PANC-1; item: GAPDH; concentration not given, lower dose arm; baseline: untreated cells).

Some of these lines once more (other studies, line by line):
`COCC1CC2C(CCC3(C)C(O)CCC23)c2ccc(O)cc21` (stereo not drawn) — result for “mRNA level ratio”: 1.37 and 1.4 and 1.35 and 1.34 (PANC-1; item: GAPDH; concentration not given, lower dose arm; baseline: untreated cells).
With `COCC1CC2C(CCC3C(O)CCC32)c2ccc(O)cc21` (stereo not drawn) the expression ratio was 0.821 and 0.782 and 0.801 and 0.816 and 0.826 (SK-OV-3; item: ACTB; 25 µM; baseline: untreated control).
